Published values from different studies.
Every numbered part comes from another study and shows a few of its results, in no order. Changes are numbered by the printed parent chain.

Series 1 — method: RNA Bind-n-Seq; form: RNA; matrix: in vitro; tested at: 1 µM; notes: whole 134-nt RNA, ends assumed; added: 150 mM KCl; baseline: input library; reading: higher = stronger binding
Target: Ras GTPase-activating protein-binding protein 1, RRM domain (G3BP1, Homo sapiens, UniProt Q13283)
Chain of UniProt Q13283 (whole entry, looked up): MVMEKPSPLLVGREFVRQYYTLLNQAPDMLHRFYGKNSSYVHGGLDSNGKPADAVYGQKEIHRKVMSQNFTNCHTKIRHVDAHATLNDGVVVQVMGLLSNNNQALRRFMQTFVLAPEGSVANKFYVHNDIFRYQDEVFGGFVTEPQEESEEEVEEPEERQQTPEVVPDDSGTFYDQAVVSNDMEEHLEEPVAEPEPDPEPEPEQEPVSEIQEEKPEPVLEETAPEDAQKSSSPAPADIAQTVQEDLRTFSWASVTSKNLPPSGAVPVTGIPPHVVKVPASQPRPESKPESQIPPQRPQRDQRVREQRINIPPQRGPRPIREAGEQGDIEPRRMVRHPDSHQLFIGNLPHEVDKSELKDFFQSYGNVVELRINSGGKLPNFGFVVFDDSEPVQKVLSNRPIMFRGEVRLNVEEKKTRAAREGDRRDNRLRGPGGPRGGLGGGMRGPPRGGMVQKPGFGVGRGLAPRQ
Oligonucleotide	log2 enrichment
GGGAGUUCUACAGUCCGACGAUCGUCCUGUGCUACACAUCGUAUGUACCGAAUCGGGUUUGGGAAAAAGGGAAAAAAAGGGAAAGUAUUAUGUUACGCCGUUCGGAUCUGCACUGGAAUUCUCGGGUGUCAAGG	0.205
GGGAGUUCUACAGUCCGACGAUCAGUCCUGUGCUACACAUCGUAUGUACCGAAUCGGUUUUUGGUUUUUUUGGUUUUUGGAAAGUAUUAUGUUACGCCGUUCGGAUCUGCACUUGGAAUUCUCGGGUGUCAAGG	-0.146
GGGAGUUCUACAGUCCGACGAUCUUUGUAGAGCAGCCCGACGGCCAUGGAGGCUGAAGAGACGAUGGAAUGCCUUCAGGAGUUCCCUGAACAUCAUAAAAUGAUCCUCGACCGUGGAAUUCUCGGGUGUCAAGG	-0.0442
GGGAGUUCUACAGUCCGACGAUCUCCUGUGCUACACAUCGUAUGUACCGAAUCAAACCCCCCCAAAUUUAAAUUUUUUUAAAAAAGUAUUAUGUUACGCCGUUCGGAUCUGCAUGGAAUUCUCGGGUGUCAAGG	-0.363
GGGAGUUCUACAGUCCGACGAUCUGCCGAUUCGGAAGUCCUUGAGGAGCGUCAGAAGCGGCUUCCCUACGUCCCAGAGCCCUAUUACCCGGAAUCUGGAUGGGACCGCCUCCGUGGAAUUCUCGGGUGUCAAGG	-0.271
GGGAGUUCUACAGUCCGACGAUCAGUCCUGUGCUACACAUCGUAUGUACCGAAUCGGGAAAAAGGGAGGGUUUUUUUGGGAAAGUAUUAUGUUACGCCGUUCGGAUCUGCACUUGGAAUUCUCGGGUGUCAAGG	0.425
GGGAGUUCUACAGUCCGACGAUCCCUCAAGUCCUGUGCUACACAUCGUAUGUACCGAAUCGGGAGGGAGGGUGGGAAAGUAUUAUGUUACGCCGUUCGGAUCUGCACUUCCAGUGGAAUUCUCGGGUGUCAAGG	0.791
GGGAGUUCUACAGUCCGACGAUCUGGCCGGUGGCCGUGAGAACACGCUGUGUGGCUGAAAAGUGAAGGCAAGAGCUGAUUUGGCCUCUGUGCUCCCCUCCGCAAGGGGAUCGUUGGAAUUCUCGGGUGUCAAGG	-0.363

Series 2 — method: protein binding microarray; form: double-stranded DNA, one strand shown; matrix: in vitro; tested at: not given; baseline: not given; reading: higher = stronger binding
Target: Histone acetyltransferase KAT6A, both winged helices, GST fusion (KAT6A, Homo sapiens, UniProt Q92794, residues 1-181)
Notes: 8-mer, flanks averaged, mean of 2 arrays, mostly near background
Residues (chain): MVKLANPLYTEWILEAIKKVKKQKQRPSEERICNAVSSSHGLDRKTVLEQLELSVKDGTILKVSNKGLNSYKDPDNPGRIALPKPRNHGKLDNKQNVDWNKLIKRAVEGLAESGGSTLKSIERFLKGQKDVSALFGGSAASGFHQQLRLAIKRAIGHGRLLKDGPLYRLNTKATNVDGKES
Oligonucleotide	E-score
ATCCAATG	-0.0956
GTTCGCAA	0.142
CCATACCC	-0.0631
TATGCCGA	0.172
GACGTTCC	0.0325
GCTAGAAC	0.0378
CGTTACAA	0.0428
AATAGTTG	-0.108

Series 3 — target: CCND3, cyclin fold, Cln2 fusion (human); method: yeast growth competition, sequencing; matrix: yeast; notes: weak parent motif; baseline: not given; reading: higher = stronger binding
Starting sequence: CDC25A docking peptide (human); PPHRRRLLFACSP; partner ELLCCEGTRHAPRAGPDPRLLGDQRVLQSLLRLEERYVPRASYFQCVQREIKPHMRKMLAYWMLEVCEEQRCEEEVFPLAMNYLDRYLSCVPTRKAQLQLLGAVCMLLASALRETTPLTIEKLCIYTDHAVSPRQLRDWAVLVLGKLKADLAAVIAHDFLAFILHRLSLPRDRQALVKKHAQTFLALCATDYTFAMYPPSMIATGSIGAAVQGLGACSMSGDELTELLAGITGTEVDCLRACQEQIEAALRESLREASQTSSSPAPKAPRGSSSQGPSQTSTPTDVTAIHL
Variant	normalised enrichment score
PPHRRRGLFACSP [L7G]	0.0959
PPHRRRLLFASSP [C11S]	0.129
PPHRRRLLFACSF [P13F]	0.101
PPHRRRLLFACFP [S12F]	0.103
PPYRRRLLFACSP [H3Y]	0.137
PPHRRRLRFACSP [L8R]	0.1
PPHRRRVLFACSP [L7V]	0.149
PNHRRRLLFACSP [P2N]	0.162

Single results of other studies
Starting sequence: PafA, mature enzyme, eGFP fusion (Elizabethkingia meningoseptica, UniProt Q9KJX5); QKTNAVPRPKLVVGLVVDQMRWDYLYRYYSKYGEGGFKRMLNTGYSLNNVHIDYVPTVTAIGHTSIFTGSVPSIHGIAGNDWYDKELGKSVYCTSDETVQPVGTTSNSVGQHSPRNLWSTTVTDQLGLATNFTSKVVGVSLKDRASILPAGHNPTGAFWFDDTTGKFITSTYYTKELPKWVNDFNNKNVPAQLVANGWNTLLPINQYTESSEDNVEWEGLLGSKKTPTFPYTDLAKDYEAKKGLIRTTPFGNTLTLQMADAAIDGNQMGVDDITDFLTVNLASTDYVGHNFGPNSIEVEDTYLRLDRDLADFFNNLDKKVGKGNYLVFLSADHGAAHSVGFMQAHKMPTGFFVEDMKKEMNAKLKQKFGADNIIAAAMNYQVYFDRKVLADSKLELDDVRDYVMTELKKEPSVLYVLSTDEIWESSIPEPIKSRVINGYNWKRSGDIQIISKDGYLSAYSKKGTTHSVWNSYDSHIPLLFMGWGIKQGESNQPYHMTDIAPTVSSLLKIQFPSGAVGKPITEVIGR
Variant	target	test	system	setting	scale	measurement	result
A259V	vanadate, free oxyanion	microfluidic competitive inhibition	in vitro, cell-free expressed	not given, derived from inhibition constants, unchanged parent 676 nM	lower = stronger binding	oxyanion analog dissociation constant	1.09 µM

For quick reference, copied from above (series 2):
Oligonucleotide	E-score
GTTCGCAA	0.142
CCATACCC	-0.0631
TATGCCGA	0.172
